Measurements collected from several papers.
Every numbered part comes from another study and shows a few of its results, in no order. Values joined by “and” are separate records of one study, mostly repeats; a detail may differ.
UniProt P08581, sequence (whole entry, looked up): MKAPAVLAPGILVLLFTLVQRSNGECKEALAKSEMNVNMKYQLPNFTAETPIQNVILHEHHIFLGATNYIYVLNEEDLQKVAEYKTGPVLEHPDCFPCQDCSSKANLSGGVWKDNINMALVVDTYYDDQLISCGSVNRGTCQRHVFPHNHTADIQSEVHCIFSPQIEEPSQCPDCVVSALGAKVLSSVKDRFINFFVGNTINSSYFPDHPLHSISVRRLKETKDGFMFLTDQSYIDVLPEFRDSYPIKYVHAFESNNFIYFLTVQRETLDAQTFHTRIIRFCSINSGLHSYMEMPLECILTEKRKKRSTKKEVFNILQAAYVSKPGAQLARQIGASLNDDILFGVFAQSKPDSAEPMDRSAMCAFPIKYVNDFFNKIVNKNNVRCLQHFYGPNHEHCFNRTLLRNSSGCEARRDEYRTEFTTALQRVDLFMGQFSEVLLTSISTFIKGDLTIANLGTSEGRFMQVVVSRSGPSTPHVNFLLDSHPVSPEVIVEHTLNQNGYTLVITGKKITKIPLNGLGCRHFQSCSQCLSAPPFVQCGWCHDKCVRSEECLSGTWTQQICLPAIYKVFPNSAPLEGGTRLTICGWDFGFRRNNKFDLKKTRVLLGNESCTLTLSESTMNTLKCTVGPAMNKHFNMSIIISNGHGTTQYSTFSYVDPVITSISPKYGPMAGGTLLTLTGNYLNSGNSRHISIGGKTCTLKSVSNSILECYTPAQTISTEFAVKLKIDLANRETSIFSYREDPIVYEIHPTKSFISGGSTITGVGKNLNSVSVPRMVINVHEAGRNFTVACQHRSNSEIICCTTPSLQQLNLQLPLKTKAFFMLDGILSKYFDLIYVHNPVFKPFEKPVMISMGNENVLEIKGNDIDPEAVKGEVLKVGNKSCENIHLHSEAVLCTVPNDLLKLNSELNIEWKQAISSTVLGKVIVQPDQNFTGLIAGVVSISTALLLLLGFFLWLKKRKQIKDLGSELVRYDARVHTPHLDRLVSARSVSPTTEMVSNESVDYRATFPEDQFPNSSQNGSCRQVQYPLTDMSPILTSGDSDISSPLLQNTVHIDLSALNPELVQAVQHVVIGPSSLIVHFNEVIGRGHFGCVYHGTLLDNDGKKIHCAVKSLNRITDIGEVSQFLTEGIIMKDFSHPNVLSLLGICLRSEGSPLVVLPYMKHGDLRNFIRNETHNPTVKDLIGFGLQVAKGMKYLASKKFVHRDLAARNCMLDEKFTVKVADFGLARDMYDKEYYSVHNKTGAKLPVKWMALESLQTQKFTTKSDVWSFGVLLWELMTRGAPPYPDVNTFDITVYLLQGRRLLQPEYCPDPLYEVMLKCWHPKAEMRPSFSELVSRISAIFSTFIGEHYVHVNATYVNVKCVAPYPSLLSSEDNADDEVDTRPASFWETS
UniProt Q16566, sequence (whole entry, looked up): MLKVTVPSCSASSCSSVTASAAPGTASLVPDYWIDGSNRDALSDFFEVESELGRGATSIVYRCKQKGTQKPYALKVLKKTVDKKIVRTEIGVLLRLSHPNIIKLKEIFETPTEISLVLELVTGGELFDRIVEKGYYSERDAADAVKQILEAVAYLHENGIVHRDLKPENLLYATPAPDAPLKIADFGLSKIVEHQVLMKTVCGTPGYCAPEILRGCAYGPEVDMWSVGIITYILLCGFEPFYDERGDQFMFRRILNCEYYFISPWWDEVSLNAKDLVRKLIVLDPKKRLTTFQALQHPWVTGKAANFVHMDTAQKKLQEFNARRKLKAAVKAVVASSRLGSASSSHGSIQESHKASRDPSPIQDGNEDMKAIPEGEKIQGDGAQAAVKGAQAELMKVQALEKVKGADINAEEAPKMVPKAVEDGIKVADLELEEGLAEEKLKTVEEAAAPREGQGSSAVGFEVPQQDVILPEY
UniProt P51451, sequence (whole entry, looked up): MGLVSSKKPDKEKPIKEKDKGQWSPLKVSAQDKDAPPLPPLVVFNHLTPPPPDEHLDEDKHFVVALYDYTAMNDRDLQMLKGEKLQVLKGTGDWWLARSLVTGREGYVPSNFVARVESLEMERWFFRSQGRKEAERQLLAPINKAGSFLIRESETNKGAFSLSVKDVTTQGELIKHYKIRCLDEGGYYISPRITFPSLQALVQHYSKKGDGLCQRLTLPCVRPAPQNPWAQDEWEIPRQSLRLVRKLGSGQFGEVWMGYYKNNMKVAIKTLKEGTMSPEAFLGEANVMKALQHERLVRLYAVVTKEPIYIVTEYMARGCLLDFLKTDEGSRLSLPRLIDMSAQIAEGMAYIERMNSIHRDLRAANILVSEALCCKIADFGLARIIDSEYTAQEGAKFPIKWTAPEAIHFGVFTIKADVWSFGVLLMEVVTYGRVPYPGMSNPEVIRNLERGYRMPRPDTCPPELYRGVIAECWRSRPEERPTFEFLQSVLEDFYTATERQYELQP
UniProt P50750, sequence (whole entry, looked up): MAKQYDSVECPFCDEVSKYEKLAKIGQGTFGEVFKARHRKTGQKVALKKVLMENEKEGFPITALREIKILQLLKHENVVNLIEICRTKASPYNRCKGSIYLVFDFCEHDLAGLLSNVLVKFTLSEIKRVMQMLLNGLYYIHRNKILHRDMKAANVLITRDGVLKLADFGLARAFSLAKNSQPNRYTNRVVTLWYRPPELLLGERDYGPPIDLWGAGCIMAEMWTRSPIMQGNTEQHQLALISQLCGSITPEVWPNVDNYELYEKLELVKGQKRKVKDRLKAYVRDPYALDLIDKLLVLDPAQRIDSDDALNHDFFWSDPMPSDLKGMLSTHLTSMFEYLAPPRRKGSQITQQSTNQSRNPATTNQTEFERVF
UniProt Q8N568, sequence (whole entry, looked up): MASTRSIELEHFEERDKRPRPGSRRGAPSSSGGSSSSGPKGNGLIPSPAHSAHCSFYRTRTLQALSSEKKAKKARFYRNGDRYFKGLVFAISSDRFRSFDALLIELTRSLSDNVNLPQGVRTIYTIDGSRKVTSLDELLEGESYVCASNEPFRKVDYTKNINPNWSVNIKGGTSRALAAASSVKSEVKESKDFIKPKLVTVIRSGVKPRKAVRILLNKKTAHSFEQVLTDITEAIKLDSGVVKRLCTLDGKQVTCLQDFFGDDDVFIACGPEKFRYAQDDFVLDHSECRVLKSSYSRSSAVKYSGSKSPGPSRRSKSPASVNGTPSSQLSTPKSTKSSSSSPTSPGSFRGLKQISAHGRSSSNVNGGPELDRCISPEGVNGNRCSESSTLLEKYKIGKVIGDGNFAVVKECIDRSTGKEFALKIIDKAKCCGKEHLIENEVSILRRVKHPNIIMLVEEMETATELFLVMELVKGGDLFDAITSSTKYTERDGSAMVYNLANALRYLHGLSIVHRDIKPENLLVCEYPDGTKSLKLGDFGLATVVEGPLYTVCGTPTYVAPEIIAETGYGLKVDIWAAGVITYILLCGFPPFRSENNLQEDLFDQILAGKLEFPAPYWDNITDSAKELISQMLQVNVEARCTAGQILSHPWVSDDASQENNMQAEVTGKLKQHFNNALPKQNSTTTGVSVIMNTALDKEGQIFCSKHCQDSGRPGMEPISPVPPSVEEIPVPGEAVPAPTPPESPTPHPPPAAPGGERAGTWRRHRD
UniProt P49137, sequence (whole entry, looked up): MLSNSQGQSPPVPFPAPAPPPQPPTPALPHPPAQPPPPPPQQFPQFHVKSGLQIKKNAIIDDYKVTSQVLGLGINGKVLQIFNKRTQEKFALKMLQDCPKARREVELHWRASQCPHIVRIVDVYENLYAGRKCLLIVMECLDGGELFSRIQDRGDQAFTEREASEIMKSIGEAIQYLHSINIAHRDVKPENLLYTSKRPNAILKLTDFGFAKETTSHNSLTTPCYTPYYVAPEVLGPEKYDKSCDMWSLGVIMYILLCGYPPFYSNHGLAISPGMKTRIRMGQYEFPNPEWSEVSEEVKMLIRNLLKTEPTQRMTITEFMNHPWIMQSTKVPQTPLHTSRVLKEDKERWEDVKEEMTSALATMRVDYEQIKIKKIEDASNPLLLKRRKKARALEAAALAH
UniProt Q14012, sequence (whole entry, looked up): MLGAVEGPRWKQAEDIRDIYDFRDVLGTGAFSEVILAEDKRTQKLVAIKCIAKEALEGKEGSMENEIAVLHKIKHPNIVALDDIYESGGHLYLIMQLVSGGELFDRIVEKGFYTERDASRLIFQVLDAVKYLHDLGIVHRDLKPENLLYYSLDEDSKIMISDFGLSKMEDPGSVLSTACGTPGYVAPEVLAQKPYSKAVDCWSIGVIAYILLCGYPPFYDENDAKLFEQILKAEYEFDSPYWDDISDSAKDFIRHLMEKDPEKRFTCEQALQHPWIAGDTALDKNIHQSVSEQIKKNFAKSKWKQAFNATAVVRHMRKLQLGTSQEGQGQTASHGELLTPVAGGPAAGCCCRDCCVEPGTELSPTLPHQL

Study 1
Target: Calcium/calmodulin-dependent protein kinase type II subunit alpha (CAMK2A, Homo sapiens, UniProt Q9UQM7)
UniProt Q9UQM7, sequence (whole entry, looked up): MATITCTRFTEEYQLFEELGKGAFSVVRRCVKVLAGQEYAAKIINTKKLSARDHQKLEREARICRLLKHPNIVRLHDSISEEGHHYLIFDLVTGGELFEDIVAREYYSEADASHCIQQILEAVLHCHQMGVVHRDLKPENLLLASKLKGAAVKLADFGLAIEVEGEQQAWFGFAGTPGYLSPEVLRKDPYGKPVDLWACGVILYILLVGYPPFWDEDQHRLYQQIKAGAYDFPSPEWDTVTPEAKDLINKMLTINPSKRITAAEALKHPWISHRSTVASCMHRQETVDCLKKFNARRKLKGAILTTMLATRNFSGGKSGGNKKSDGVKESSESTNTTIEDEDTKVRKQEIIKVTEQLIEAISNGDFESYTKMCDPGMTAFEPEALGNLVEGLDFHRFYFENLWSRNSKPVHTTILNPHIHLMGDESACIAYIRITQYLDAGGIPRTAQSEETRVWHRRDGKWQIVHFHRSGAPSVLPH
Read-out: enzyme activity
Action: inhibitor
Concentration: 10 µM
Measurement: inhibition
CC(C)c1cc2c(c(O)c1O)[C@@]13CCCC(C)(C)[C@@H]1[C@H](OC3=O)[C@H]2O: -17%
NC(=O)c1cnc2[nH]ccc2c1N[C@@H]1[C@@H]2CC3C[C@H]1C[C@@](O)(C3)C2: 1%
O=C(O)C1CCCCN1O (stereo not shown): 8%
CC(C)=CC(=O)O[C@H]1Cc2cc3ccc(=O)oc3cc2OC1(C)C: -27%
COc1cc2/c(=N/c3ccc(Br)cc3F)nc[nH]c2cc1OCC1CCN(C)CC1: -11%
CC(O)CN (stereo not shown): 35%
CC(=O)c1ccc(S(=O)(=O)NC(=O)NC2CCCCC2)cc1: 9%
CC1=CC(=O)CC(C)(C)[C@@]1(O)/C=C/C(C)=C\C(=O)O: -41%
Cc1cc(O)c2c(c1)C(=O)c1cc(O)cc(O)c1C2=O: 11%
COc1c2ccoc2c(OC[C@H]2OC2(C)C)c2oc(=O)ccc12: -7%
C=CCSC: 12%
O=c1[nH]c(=O)n([C@H]2C[C@H](O)[C@@H](CO)O2)cc1C(F)(F)F: -7%
COc1cc([C@@H]2c3cc4c(cc3[C@@H](O[C@@H]3O[C@@H]5CO[C@@H](C)O[C@H]5[C@H](O)[C@H]3O)[C@H]3COC(=O)[C@H]23)OCO4)cc(OC)c1O: 0%
Nc1nc2c(ncn2[C@@H]2O[C@@H]3COP(=O)(O)O[C@H]3[C@H]2O)c(=O)[nH]1: -1%
CCC(CC)O[C@@H]1C=C(C(=O)O)C[C@H](N)[C@H]1NC(C)=O: -13%
N[C@@H](CCC[C@H](N)C(=O)O)C(=O)O: -16%

Study 2
SMILES: N#C/C(=C\c1ccc(O)c(O)c1)C(=O)NCc1ccccc1
Read-out: enzyme activity
Action: inhibitor
Concentration: 0.5 µM
Baseline: control
Measurement: remaining activity
MARK4 (Homo sapiens, UniProt Q96L34): 104%
CDC42BPB (Homo sapiens, UniProt Q9Y5S2): 103%
CAMK4 (Homo sapiens, UniProt Q16566): 97%
PNCK (Homo sapiens, UniProt Q6P2M8): 97.1%
TLK2 (Homo sapiens, UniProt Q86UE8): 105%
MAP2K1 (Homo sapiens, UniProt Q02750): 94%
MAPK1 (Homo sapiens, UniProt P28482): 92.2%
TXK (Homo sapiens, UniProt P42681): 104%
Cyclin-dependent kinase 9, with cyclin K (CDK9, Homo sapiens, UniProt P50750): 102%
Cyclin-dependent kinase 1, with cyclin A (CDK1, Homo sapiens, UniProt P06493): 92.8%
MET (Homo sapiens, UniProt P08581): 98.1%
DDR2 (Homo sapiens, UniProt Q16832): 97.2%
PLK3 (Homo sapiens, UniProt Q9H4B4): 96.1%
AKT2 (Homo sapiens, UniProt P31751): 98.4%

Study 3
Cell line: mouse MPNST tumor cells
Technique: high-content nuclear imaging
Refers to: cell number
Concentration: 10 µM
Time: 12 h
Setting: mean of 2 replicates
Baseline: plate mean
Reading: higher = more cells
Measurement: nuclei count
Clc1ccc(C(c2ccccc2Cl)C(Cl)Cl)cc1 (stereo not shown): 1.01 z-score and 0.373 z-score
Cc1c(-c2ccc(-c3ccccc3F)cc2)nc2ccc(F)cc2c1C(=O)O: -1.26 z-score
NS(=O)(=O)c1cc2c(cc1Cl)NCNS2(=O)=O: -0.736 z-score
O=C(O)P(=O)(O)O: 1.75 z-score
CC(C)c1nc(N(C)S(C)(=O)=O)nc(-c2ccc(F)cc2)c1/C=C/[C@@H](O)C[C@@H](O)CC(=O)O: -1.18 z-score
CN1CC(=O)N2[C@H](c3ccc4c(c3)OCO4)c3[nH]c4ccccc4c3C[C@@H]2C1=O: 1.85 z-score and 2.23 z-score
COc1cc(OC)c(C(=O)CCCN2CCCC2)c(OC)c1: -0.382 z-score
CCc1cccc2c3c([nH]c12)C(CC)(CC(=O)O)OCC3 (stereo not shown): 0.081 z-score
N#Cc1ccc(-c2csc(NN=C3CCCC3)n2)cc1: 0.465 z-score
COc1ccc(C2CC(c3ccccc3)=NN2c2ccc(S(N)(=O)=O)cc2)cc1 (stereo not shown): 0.903 z-score
COc1cccc([C@@H](C)NCCCc2ccccc2Cl)c1: 0.0252 z-score
Nc1ncnc2c1ncn2C1OC(COP(=O)(O)O)C(O)C1O (stereo not shown): 0.0011 z-score

Study 4
Structure (SMILES): O=C(Nc1ccc(Oc2ccc(F)cc2)cc1)N1CCc2ncccc2[C@H]1c1ccc(F)cc1
Technique: competition with immobilised ligand
Concentration: 1 µM
Measurement: remaining binding
INSRR (Homo sapiens, UniProt P14616); cell-free assay: 94%
CLK2 (Homo sapiens, UniProt P49760); cell-free assay: 95%
EGFR (Homo sapiens, UniProt P00533, L858R/T790M); cell-free assay: 71%
PIK3C3 (Homo sapiens, UniProt Q8NEB9); cell-free assay: 92%
DAPK3 (Homo sapiens, UniProt O43293); cell-free assay: 100%
VRK2 (Homo sapiens, UniProt Q86Y07); cell-free assay: 97%
FLT1 (Homo sapiens, UniProt P17948); cell-free assay: 100%
BLK (Homo sapiens, UniProt P51451); cell-free assay: 90%
CAMK1 (Homo sapiens, UniProt Q14012); cell-free assay: 70%
Aurora kinase A (AURKA, Homo sapiens, UniProt O14965); cell-free assay: 100%
IKBKE (Homo sapiens, UniProt Q14164); cell-free assay: 89%
ALK (Homo sapiens, UniProt Q9UM73, C1156Y); cell-free assay: 93%
CSNK1E (Homo sapiens, UniProt P49674); cell-free assay: 85%
EIF2AK2 (Homo sapiens, UniProt P19525); cell-free assay: 100%
FLT3 (Homo sapiens, UniProt P36888, D835V); cell-free assay: 96%
CAMK2D (Homo sapiens, UniProt Q13557); cell-free assay: 89%
LTK (Homo sapiens, UniProt P29376); cell-free assay: 86%
PKN2 (Homo sapiens, UniProt Q16513); cell-free assay: 80%
PAK1 (Homo sapiens, UniProt Q13153); cell-free assay: 82%
DSTYK (Homo sapiens, UniProt Q6XUX3); cell-free assay: 100%
Myosin-IIIa (MYO3A, Homo sapiens, UniProt Q8NEV4); binding: 100%
FER (Homo sapiens, UniProt P16591); cell-free assay: 91%
DCLK2 (Homo sapiens, UniProt Q8N568); cell-free assay: 87%
PRKX (Homo sapiens, UniProt P51817); cell-free assay: 88%
MAPKAPK2 (Homo sapiens, UniProt P49137); cell-free assay: 98%

Excerpt of the above (study 3):
NS(=O)(=O)c1cc2c(cc1Cl)NCNS2(=O)=O: -0.736 z-score
Clc1ccc(C(c2ccccc2Cl)C(Cl)Cl)cc1 (stereo not shown): 1.01 z-score and 0.373 z-score
COc1cc(OC)c(C(=O)CCCN2CCCC2)c(OC)c1: -0.382 z-score
N#Cc1ccc(-c2csc(NN=C3CCCC3)n2)cc1: 0.465 z-score
